Results pooled from the literature.
Each numbered part is a random draw from the data of one study; scales do not carry over between parts. Substitutions count along the parent as printed.

Study 1 — method: protein-binding microarray; molecule type: double-stranded DNA, one strand shown; medium: in vitro; concentration: not given; reading: higher = stronger binding; measurement: E-score
Target: Max-binding protein MNT, bHLH-zipper, MAX partner unstated (MNT, Homo sapiens, UniProt Q99583, residues 220-300)
Setting: k-mer, scored over probes, only values ≥0.25
Construct (chain): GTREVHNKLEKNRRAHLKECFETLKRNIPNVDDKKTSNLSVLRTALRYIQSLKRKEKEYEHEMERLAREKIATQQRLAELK
CGTGTGCA: 0.391
ACGTTCCC: 0.263
AAGGCATG: 0.335
ATACACGA: 0.256
GACGTGGC: 0.263
AACCACAT: 0.275
CGTGTGTA: 0.361
ACGAGATG: 0.274
CATGCATG: 0.403
ACGGGGGG: 0.263
CACGCATG: 0.44
ACGCCCGA: 0.263
GTGGGCGA: 0.257
GCGTGCGA: 0.391
ACGCGTGA: 0.424
GCTTAACA: 0.3
GCGGGGAA: 0.272
GTGGGGCA: 0.32

Study 2 — target: CCND2, cyclin fold, Cln2 fusion (human); method: yeast growth competition, sequencing; medium: yeast; setting: weak parent motif; baseline: not given; reading: higher = stronger binding; measurement: normalised enrichment score
Starting sequence: FOXM1 docking peptide (human); PHLARPIKVESPP; partner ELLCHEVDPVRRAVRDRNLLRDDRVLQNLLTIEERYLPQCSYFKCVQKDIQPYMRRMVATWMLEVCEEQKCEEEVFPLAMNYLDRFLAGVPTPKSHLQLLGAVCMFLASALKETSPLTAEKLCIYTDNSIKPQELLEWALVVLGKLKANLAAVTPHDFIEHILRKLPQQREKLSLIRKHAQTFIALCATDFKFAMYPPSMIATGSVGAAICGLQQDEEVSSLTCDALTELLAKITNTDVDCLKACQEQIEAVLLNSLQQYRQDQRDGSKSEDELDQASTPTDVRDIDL
P1A: -0.122
P12A: -0.74
H2A: -0.248
P13A: -0.0761
E10A: -0.0082
S11A: -0.168

Study 3 — method: protein-binding microarray; molecule type: double-stranded DNA, one strand shown; medium: in vitro; concentration: 940 nM top; setting: 60-bp whole probe; with: salmon DNA 0.4 mg/ml; baseline: random background probes; reading: higher = stronger binding; measurement: fitted relative affinity; shared flanks, not repeated: GCCTAGCAC … GTCTTGATTCGCTTGACGCTGCTG
Target: Interferon regulatory factor 5, full length, phosphomimetic (IRF5, Homo sapiens, UniProt Q13568-2, residues 1-514, S451D/S453D/S456D/S462D)
TTCACTATTGCTTCCTCTTTGTGCTAG: 1.23 z-score
GACCATCTCAGACTGGAGACGTGCTAG: -0.014 z-score
TTAGAACTGGGGACTTGATTAGTGCTA: -0.0827 z-score
TCACTTTTCCATTTTGTACTGTGCTAG: 1.91 z-score
TTAGGACTGGGGCTTCGGTTAGTGCTA: -0.476 z-score
GACGATATCAGGTATCGAGACGTGCTA: 1.07 z-score
GACGGACTGTGTATCGGGACGTGCTAG: -0.149 z-score
TCAGTTCCCTATATAAGACTGTGCTAG: 0.5 z-score
GACGATTTAAGTATCGAGACGTGCTAG: 1.92 z-score
GCCGGTATCGGACTGGGGACGTGCTAG: 3.08 z-score
GACGGTTTCCTTTTCCTGCCGTGCTAG: 1.96 z-score
TCAAATATCTTTGTTGAACTGTGCTAG: -0.095 z-score
TCATGAATGCCCTCTAACACTGTGCTA: 0.391 z-score
GACGGTCTCGGTTTCGGAACGTGCTAG: 7.13 z-score
TCATACATGTGTTTAAAACTGTGCTAG: 0.0311 z-score
TTAGAACTGACTCTCGATTAGTGCTAG: 2.56 z-score
GACGGTAGCGACTTTCGGGACGTGCTA: 0.783 z-score

Study 4 — method: RNA Bind-n-Seq; molecule type: RNA; medium: in vitro; concentration: 365 nM; baseline: no-protein control; reading: higher = stronger binding; measurement: RBNS enrichment (R)
Target: RNA binding protein fox-1 homolog 2, RRM domain, GST-SBP tag (RBFOX2, Homo sapiens, UniProt O43251-10, residues 100-194)
Setting: natural RNA segment, single round, ends assumed
Shared flanks, not repeated: GGGAGUUCUACAGUCCGACGAUC … UGGAAUUCUCGGGUGCCAA
Construct (chain): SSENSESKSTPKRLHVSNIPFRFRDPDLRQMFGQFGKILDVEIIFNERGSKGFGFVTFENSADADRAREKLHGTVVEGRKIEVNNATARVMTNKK
UUAAUCAGUGAAUCAAAUUAUGAUUACAAUUAUCAAAUGAAUGCUCAGCAUUAAUUGAAAACUGUUUUGUGAAACAUGUCUACCCAGAAAAGUAGCAUUCUAUAAAUACU: 0.31
GUGUUUUGGGGGAGCUAUGAUAAGUUUUAUGGCAAACGGUUGGUAUUGUUAACUUUUUAUUGUCAUCAAAAGUUCAUAAAAGUCCUAUUAAUCCCCAUAUUCUUCUACUG: 0.881
UAUUCACUUUAUAUCCCACUCACUGUCUCCCUCCCUGUCACUUAUUUCCACAAUCAUCCCCCCACCCCCAUCUCCCCUUCUUCUCUUUGCUGGUGGGGUCCCCCCUGGUA: 0.789
GUGCCGAGGCAUGAAAGGCUAGUAUGAGCGAGAAAAGGAGAGCGCGUGCAGAGACUUGGUGGUGGAAAAUGGAUAUUUUUUAACUUGGAGAGAUGUGUCACUCAAUCCUG: 2.15
UCAGGAAUCGGAAUCCUGUCGAUUAGACUGGACAGCUUGUGGCAAGUGAAUUUGCCUGUAACAAGCCAGAUUUUUUAAAAUUUAUAUUGUAAAUAUUGUGUGUGUGUGUG: 0.781
GCAGAGUUGGGUGCUAAGAUCCUGAGGAGCUCGAGGUUUCGAGCUGGCUUUAGACAUUGGUGGGACCAAGGAUGUUUUGCAGGAUGCCCUGAUCCUAAGAAGGGGGCCUG: 0.508
ACUUGGGCUGUCAUCUUUGAGCUGUUUACCAAAAUACAGACCAUUAUUGAAGAAAAACAAAUUAUCUAUUUUGUUUUCCCCCAUCUAACAUGAUAGUGCCCCCAACCAGG: 0.35
UAUAUUAGAGGGACUGGGUUUAAAAAAAAUGAUAUAGGGUAGAAAAUAAGAGCUAUACUUACCAGAGUCAAUAGAUCACUGGCUUCUCUUUGCUGUCAAAAGCUACAUUG: 0.439
AGGUAUUUCAUAACAAAAAUAUGUAUUUCUUUUUUGUUAUUUUAUCUUGAAAACGGUACAUAUUUUAGUAUUUGUGCAGAAAAACAAGUCCUAAAGUAUUUGUUUUUAUU: 0.737
CUUGAGACUUAGGAGGAUUGCCUGUUUUCAGUGUCCAGGGAAUGACUCCAUAGAUUUGAAUUCUUUUCCGUAUGUGGGGAUGGUUGCUACUACCUCACCGCCAAGUCCUC: 0.858
UAUUUUUUUUUUAAACUGAAUCCUGUUUUGUAAAUAAUAUACAUUUAAUGUUGCUUAGCAUAAAAAAUACUUUCUUACAGUAAUCUUCUUUAAAUUGGGUAUAUGAAAAC: 0.606
UAUGAUUUGCUUUUGACGUCUGUCCUAGUGAUGUGUGUUGUCUGCUGGCAUGCUUGCAGCACAUGUCCAUUAAAGGUCAUUUUGUUUAUUUGUUGGCAUGCUUACAACAC: 1.6

Study 5 — method: RNAcompete; molecule type: RNA; medium: in vitro; concentration: 20 nM; setting: 7-mer, probes averaged, single round; baseline: mean of 7-mers; reading: higher = stronger binding; measurement: 7-mer Z-score
Target: PABPC1L2, full length, GST fusion (mouse, UniProt A0ABA7IW68)
Target sequence (chain): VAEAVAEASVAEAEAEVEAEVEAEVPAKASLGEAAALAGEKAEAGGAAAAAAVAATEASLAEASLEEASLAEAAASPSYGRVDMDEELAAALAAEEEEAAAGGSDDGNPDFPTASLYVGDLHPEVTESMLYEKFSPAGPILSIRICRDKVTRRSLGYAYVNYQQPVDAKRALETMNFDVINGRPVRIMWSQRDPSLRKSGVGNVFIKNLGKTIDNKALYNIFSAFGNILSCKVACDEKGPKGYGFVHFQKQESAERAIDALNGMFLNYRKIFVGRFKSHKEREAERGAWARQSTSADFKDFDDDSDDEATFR
UCUCCUC: -0.393
UAGGGGU: -0.0174
UGGCGAG: 0.131
GUAGAAU: -0.0156
CGAUCUG: -0.217
UCUAAAA: 3
UAAAGGG: 0.932
UAGCACA: -0.146
GUAGUGC: -0.177
UAGAGGC: 0.198
UGUAAAG: 0.465
UUGGGCA: -0.0246
UACAUAA: 0.582

Study 6 — method: protein binding microarray; molecule type: double-stranded DNA, one strand shown; medium: in vitro; concentration: not given; baseline: not given; reading: higher = stronger binding; measurement: E-score
Target: Histone acetyltransferase KAT6A, both winged helices, GST fusion (KAT6A, Homo sapiens, UniProt Q92794, residues 1-181)
Setting: 8-mer, flanks averaged, mean of 2 arrays, mostly near background
Target sequence (chain): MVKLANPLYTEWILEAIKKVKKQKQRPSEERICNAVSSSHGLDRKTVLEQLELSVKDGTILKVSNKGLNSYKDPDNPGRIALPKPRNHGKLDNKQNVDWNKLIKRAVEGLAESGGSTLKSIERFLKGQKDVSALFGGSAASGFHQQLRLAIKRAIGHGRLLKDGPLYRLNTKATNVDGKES
GTGCCCTA: -0.0987
CTCGCTGA: 0.0618
ATCGGATC: 0.0902
CGACCCCA: -0.108
GCGAGCGC: 0.295
ACTTGCAT: -0.155
CCGAACAA: 0.0916
CGTTGTGA: 0.0344
AGTCAACA: -0.174
GAATACGC: 0.161
CTGGAGGA: -0.14
AGGAATCA: 0.0113
AATTTTTA: -0.0276
AGGCTAGC: -0.147
AAGCTCGA: -0.137
GATCCCGC: 0.187
CCGTAACG: 0.288
GGTTCTGA: 0.122
CCAAGTAC: 0.0142
ACCAGCAT: -0.217
GATGCAGA: -0.173
CTTATTTC: -0.153

For quick reference, copied from above (study 4):
UAUGAUUUGCUUUUGACGUCUGUCCUAGUGAUGUGUGUUGUCUGCUGGCAUGCUUGCAGCACAUGUCCAUUAAAGGUCAUUUUGUUUAUUUGUUGGCAUGCUUACAACAC: 1.6
UCAGGAAUCGGAAUCCUGUCGAUUAGACUGGACAGCUUGUGGCAAGUGAAUUUGCCUGUAACAAGCCAGAUUUUUUAAAAUUUAUAUUGUAAAUAUUGUGUGUGUGUGUG: 0.781
GUGUUUUGGGGGAGCUAUGAUAAGUUUUAUGGCAAACGGUUGGUAUUGUUAACUUUUUAUUGUCAUCAAAAGUUCAUAAAAGUCCUAUUAAUCCCCAUAUUCUUCUACUG: 0.881
UAUUUUUUUUUUAAACUGAAUCCUGUUUUGUAAAUAAUAUACAUUUAAUGUUGCUUAGCAUAAAAAAUACUUUCUUACAGUAAUCUUCUUUAAAUUGGGUAUAUGAAAAC: 0.606
GCAGAGUUGGGUGCUAAGAUCCUGAGGAGCUCGAGGUUUCGAGCUGGCUUUAGACAUUGGUGGGACCAAGGAUGUUUUGCAGGAUGCCCUGAUCCUAAGAAGGGGGCCUG: 0.508
CUUGAGACUUAGGAGGAUUGCCUGUUUUCAGUGUCCAGGGAAUGACUCCAUAGAUUUGAAUUCUUUUCCGUAUGUGGGGAUGGUUGCUACUACCUCACCGCCAAGUCCUC: 0.858
ACUUGGGCUGUCAUCUUUGAGCUGUUUACCAAAAUACAGACCAUUAUUGAAGAAAAACAAAUUAUCUAUUUUGUUUUCCCCCAUCUAACAUGAUAGUGCCCCCAACCAGG: 0.35
UAUAUUAGAGGGACUGGGUUUAAAAAAAAUGAUAUAGGGUAGAAAAUAAGAGCUAUACUUACCAGAGUCAAUAGAUCACUGGCUUCUCUUUGCUGUCAAAAGCUACAUUG: 0.439
AGGUAUUUCAUAACAAAAAUAUGUAUUUCUUUUUUGUUAUUUUAUCUUGAAAACGGUACAUAUUUUAGUAUUUGUGCAGAAAAACAAGUCCUAAAGUAUUUGUUUUUAUU: 0.737
UUAAUCAGUGAAUCAAAUUAUGAUUACAAUUAUCAAAUGAAUGCUCAGCAUUAAUUGAAAACUGUUUUGUGAAACAUGUCUACCCAGAAAAGUAGCAUUCUAUAAAUACU: 0.31
UAUUCACUUUAUAUCCCACUCACUGUCUCCCUCCCUGUCACUUAUUUCCACAAUCAUCCCCCCACCCCCAUCUCCCCUUCUUCUCUUUGCUGGUGGGGUCCCCCCUGGUA: 0.789
